Published values gathered from unrelated publications.
Numbered parts are unrelated; each lists some results of a single study.
Sequence of UniProt P50406 (whole entry, looked up): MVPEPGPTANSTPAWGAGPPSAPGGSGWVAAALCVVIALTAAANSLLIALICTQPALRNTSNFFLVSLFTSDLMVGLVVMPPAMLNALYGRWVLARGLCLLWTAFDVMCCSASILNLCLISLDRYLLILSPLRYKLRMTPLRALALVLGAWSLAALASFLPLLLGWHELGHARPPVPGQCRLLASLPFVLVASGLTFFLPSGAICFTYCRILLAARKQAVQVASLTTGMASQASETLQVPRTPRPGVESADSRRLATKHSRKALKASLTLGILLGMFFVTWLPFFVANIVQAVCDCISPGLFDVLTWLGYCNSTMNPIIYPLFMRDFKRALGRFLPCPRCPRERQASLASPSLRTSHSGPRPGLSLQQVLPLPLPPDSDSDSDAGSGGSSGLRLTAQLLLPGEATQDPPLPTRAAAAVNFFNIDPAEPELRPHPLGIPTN
Sequence of UniProt Q8WXR4 (whole entry, looked up): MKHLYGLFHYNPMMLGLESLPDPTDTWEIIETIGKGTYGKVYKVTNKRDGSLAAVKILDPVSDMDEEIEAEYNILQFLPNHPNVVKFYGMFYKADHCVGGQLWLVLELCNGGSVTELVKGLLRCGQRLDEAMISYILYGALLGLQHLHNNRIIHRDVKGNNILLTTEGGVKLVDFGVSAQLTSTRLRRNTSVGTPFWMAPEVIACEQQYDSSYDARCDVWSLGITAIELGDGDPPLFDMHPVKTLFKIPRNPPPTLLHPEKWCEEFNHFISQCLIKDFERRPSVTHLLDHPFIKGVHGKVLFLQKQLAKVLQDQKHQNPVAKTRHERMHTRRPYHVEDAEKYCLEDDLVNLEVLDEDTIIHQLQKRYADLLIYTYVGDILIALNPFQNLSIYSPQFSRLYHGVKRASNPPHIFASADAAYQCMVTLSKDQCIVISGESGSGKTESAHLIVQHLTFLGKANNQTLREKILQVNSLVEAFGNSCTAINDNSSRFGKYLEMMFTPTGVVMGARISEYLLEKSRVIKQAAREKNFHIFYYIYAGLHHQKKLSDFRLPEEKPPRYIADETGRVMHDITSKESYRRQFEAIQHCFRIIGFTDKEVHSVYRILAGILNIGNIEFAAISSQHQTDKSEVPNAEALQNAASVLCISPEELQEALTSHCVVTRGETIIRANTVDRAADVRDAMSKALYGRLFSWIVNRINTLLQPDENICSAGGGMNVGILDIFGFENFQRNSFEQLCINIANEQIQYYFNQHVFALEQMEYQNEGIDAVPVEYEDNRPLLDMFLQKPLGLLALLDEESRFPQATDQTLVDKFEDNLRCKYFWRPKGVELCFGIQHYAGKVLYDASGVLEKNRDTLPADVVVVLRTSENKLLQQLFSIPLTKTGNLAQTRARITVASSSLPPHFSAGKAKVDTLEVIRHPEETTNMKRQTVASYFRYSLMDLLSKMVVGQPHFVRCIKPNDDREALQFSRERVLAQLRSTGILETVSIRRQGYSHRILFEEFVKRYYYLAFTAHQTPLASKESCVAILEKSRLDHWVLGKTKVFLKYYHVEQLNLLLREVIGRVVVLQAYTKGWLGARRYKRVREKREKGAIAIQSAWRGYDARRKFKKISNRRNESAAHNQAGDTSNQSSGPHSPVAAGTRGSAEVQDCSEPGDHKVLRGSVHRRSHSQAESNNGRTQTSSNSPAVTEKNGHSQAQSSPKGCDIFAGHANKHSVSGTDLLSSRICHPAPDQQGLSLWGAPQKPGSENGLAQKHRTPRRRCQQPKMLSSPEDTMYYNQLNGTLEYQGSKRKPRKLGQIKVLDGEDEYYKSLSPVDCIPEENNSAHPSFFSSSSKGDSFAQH
Sequence of UniProt P21917 (whole entry, looked up): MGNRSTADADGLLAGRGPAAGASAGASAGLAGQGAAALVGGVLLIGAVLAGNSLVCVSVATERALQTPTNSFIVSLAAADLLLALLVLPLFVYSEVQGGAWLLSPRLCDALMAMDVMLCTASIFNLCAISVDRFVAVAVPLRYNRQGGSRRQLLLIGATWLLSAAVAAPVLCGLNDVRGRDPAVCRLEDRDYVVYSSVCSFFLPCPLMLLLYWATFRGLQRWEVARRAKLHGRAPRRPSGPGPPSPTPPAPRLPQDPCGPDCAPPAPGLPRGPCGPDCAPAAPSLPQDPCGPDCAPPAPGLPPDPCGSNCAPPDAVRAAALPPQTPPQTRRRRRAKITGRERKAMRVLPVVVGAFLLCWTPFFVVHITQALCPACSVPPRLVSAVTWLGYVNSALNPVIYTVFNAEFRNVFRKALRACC
Sequence of UniProt O75676 (whole entry, looked up): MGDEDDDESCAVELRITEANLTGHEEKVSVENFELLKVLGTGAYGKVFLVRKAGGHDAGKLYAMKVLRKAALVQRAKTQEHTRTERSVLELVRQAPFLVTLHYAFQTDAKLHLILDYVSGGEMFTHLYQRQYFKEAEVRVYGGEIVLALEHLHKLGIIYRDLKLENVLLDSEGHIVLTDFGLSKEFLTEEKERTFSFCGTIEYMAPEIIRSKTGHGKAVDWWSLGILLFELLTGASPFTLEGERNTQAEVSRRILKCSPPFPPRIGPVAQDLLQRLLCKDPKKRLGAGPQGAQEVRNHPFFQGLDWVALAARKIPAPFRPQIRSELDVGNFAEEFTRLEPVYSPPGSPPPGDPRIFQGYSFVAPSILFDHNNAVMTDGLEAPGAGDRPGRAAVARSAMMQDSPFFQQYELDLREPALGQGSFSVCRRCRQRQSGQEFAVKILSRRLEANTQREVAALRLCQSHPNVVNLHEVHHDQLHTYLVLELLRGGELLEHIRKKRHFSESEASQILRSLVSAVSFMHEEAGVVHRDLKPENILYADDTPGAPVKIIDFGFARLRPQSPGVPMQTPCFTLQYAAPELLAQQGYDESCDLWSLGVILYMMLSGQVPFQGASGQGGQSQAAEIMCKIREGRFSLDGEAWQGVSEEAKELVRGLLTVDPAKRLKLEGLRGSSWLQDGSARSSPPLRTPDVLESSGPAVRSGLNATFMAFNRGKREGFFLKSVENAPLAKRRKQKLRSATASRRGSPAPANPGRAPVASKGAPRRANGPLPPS
Sequence of UniProt P07550 (whole entry, looked up): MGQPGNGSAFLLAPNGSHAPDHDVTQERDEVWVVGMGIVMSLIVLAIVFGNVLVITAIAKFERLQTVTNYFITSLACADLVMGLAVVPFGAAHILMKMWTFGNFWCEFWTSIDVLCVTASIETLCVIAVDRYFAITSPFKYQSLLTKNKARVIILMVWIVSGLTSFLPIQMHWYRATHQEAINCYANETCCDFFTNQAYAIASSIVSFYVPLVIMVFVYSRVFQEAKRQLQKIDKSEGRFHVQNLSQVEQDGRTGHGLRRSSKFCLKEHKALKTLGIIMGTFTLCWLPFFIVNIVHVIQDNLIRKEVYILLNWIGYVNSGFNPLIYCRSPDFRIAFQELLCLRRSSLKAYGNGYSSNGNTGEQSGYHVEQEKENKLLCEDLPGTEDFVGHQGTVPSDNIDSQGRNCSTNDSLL
Sequence of UniProt Q5BJF2 (whole entry, looked up): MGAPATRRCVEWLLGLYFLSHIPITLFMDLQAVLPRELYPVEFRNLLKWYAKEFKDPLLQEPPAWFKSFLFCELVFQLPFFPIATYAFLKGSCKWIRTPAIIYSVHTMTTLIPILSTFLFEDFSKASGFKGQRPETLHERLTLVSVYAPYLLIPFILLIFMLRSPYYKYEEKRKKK

Set 1 — read-out: enzyme activity; action: inhibitor; concentration: 10 µM
Target: Calcium/calmodulin-dependent protein kinase type II subunit alpha (CAMK2A, Homo sapiens, UniProt Q9UQM7)
Sequence of UniProt Q9UQM7 (whole entry, looked up): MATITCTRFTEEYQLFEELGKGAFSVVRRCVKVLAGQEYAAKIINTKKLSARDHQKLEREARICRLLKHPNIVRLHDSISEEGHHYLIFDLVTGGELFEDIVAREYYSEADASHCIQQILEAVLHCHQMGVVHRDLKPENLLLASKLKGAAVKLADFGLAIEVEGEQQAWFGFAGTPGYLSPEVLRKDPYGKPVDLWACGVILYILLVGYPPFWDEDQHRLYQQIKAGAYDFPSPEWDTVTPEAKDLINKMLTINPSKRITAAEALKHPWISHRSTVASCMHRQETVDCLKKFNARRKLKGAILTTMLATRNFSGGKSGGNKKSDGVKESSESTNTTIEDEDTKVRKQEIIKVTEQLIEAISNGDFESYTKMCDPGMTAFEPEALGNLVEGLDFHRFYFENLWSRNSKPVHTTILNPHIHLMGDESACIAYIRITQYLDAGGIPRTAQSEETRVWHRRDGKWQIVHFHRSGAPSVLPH
For `OC[C@H]1O[C@H](OC[C@H]2OC(O)[C@H](O)[C@@H](O)[C@@H]2O)[C@H](O)[C@@H](O)[C@@H]1O` (stereo partly drawn), the inhibition was -42%.
With `C[C@]12CCC(=O)C=C1CC[C@@H]1[C@@H]2[C@@H](O)C[C@@]2(C)[C@H]1CC[C@]2(O)C(=O)COC(=O)CCC1CCCC1` the inhibition was 8%.
`CC[C@H]1OC(=O)[C@H](C)[C@@H](O[C@H]2C[C@@](C)(OC)[C@@H](O)[C@H](C)O2)[C@H](C)[C@@H](O[C@@H]2O[C@H](C)C[C@H](N(C)C)[C@H]2O)[C@](C)(O)C[C@@H](C)C(=O)[C@H](C)[C@@H](O)[C@]1(C)O` gave an inhibition of 12%.
`O[C@@H]1CCCC[C@H]1O` (relative stereo) has an inhibition of -12%.
`COc1cc(/C=C/C(=O)O[C@@H]2[C@H](O)[C@@H](O[C@@H]3O[C@@H](C)[C@H](O[C@@H]4OC[C@@H](O)[C@H](O[C@@H]5OC[C@H](O)[C@H](O)[C@H]5O)[C@H]4O)[C@@H](O[C@@H]4OC[C@](O)(CO)[C@H]4O)[C@H]3O)[C@H](OC(=O)[C@]34CCC(C)(C)C[C@H]3C3=CC[C@@H]5[C@@]6(C)C[C@H](O)[C@H](O[C@@H]7O[C@H](CO)[C@@H](O)[C@H](O)[C@H]7O)[C@@](C)(C(=O)O)[C@@H]6CC[C@@]5(C)[C@]3(CO)CC4)O[C@@H]2C)cc(OC)c1OC` has an inhibition of -26%.
The inhibition of `COc1ccc(C2CC(=O)c3c(O)cc(O)cc3O2)cc1O` (racemic) is reported as -22%.
`CCCCCCCC(=O)O` has an inhibition of -35%.
The inhibition of `O=C(O)C[C@@H]1C(=O)O[C@H]2[C@H](OC(=O)c3cc(O)c(O)c(O)c3)[C@@H](OC(=O)c3cc(O)c(O)c4c3[C@H]1[C@@H](O)C(=O)O4)[C@H](OC(=O)c1cc(O)c(O)c(O)c1)O[C@@H]2COC(=O)c1cc(O)c(O)c(O)c1` is reported as -102%.
`C#C[C@]1(O)CC[C@H]2[C@@H]3CCC4=Cc5oncc5C[C@]4(C)[C@H]3CC[C@@]21C` gave an inhibition of -17%.
For `CN(CC(=O)O)C(=N)N`, the inhibition was 8%.
`Nc1nc(Cl)nc2c1ncn2[C@H]1C[C@H](O)[C@@H](CO)O1` gave an inhibition of 1%.

Set 2 — species: mouse; matrix: microsomes or S9; concentration: 2 µM; time: 0.5 h
The remaining compound of `COc1c2c(c(S(=O)(=O)N3CCOCC3)c3c1C(=O)N(C)CC3)OCO2` is reported as 88.2%.
The remaining compound of `CCOc1cccc(C2c3cccn3-c3sc4c(c3CN2C(=O)Nc2ccc(C)c(F)c2)CCCC4)c1` (stereo not drawn) is reported as 7.35%.
`CCOC(=O)Cc1cc(=O)c2c(=O)n(-c3ccccc3)[nH]c2[nH]1` gave a remaining compound of 85.7%.
With `Cc1ccc(-c2csc3ncn(-n4cccc4)c(=O)c23)o1` the remaining compound was 2.83%.
`Cn1cc(C2c3ccccc3C(=O)N2C2CCCCC2)c2ccccc21` (stereo not drawn) gave a remaining compound of 7.85%.
`O=C(O)CCc1nnc2[nH]c3ccccc3n2c1=O` has a remaining compound of 88.3%.
With `Cc1nc(Oc2ccc3c(c2)OCO3)c2c3c(sc2n1)CCC3` the remaining compound was 0.0158%.
`CC(C)/N=C1\ON(C(C)C)C(C)(C)N1c1ccccc1` gave a remaining compound of 1.6%.
`CCc1cc(-c2n[nH]c(C(=O)O)c2-c2nc(C)cs2)c(O)cc1O` has a remaining compound of 98.8%.
`CC(C)C1(C)N=C(c2nn(C)cc2Br)NC1=O` (stereo not drawn) gave a remaining compound of greater than 99.9%.
The remaining compound of `CCCn1ncc(N2CCC(C(=O)N3CCN(CCOc4ccc(Cl)cc4)CC3)CC2)cc1=O` is reported as greater than 100%.
With `O=c1cnnc(Nc2ccc(Br)cc2)[nH]1` the remaining compound was 73.3%.
For `Oc1cccc(-c2nc3c(s2)Cc2ccccc2-3)c1`, the remaining compound was 3.69%.
`CC1C(S(C)(=O)=O)=NNc2c(-c3ccccc3)cnn21` (stereo not drawn) gave a remaining compound of 26.2%.
`O=C1CCCc2sc(CN3CCOCC3)cc21` has a remaining compound of 80.6%.
For `COc1cc2c(cc1O)[C@@H]1Cc3ccc(O)c(OC)c3CN1CC2`, the remaining compound was 86.5%.
`COc1c(C)c(C)c2nc(NCc3ccc(S(N)(=O)=O)cc3)sc2c1C` has a remaining compound of 44.4%.
With `Cc1ccc2c(c1)nnn2C1CCN(C(=O)N(c2ccccc2)c2ccccc2)CC1` the remaining compound was 0.899%.

Set 3 — concentration: 10 µM
SMILES: O=C(O)[C@@H]1[C@@H](Cn2nnc3ccccc3c2=O)CC[C@H]1C(=O)c1ccc(OCCC2CCOCC2)cc1
For Alpha-2A adrenergic receptor (ADRA2A, Homo sapiens, UniProt P08913); binding, radioligand binding: inhibition read 5.09%.
The inhibition was -14.4% (Beta-1 adrenergic receptor (ADRB1, Homo sapiens, UniProt P08588); binding, radioligand binding).
5-hydroxytryptamine receptor 2B (HTR2B, Homo sapiens, UniProt P41595); binding, radioligand binding — inhibition: 36.2%.
The inhibition was 14% (5-hydroxytryptamine receptor 1D (HTR1D, Homo sapiens, UniProt P28221); ligand displacement, radioligand).
Muscarinic acetylcholine receptor M5 (CHRM5, Homo sapiens, UniProt P08912); binding, radioligand binding — inhibition: 1.82%.
It gave 39.3% for inhibition (Sigma intracellular receptor 2 (TMEM97, Homo sapiens, UniProt Q5BJF2); binding, radioligand binding).
The inhibition was -4.94% (D(3) dopamine receptor (DRD3, Homo sapiens, UniProt P35462); binding, radioligand binding).
It gave 26.9% for inhibition (5-hydroxytryptamine receptor 6 (HTR6, Homo sapiens, UniProt P50406); binding, radioligand binding).
Histamine H3 receptor (HRH3, Homo sapiens, UniProt Q9Y5N1); binding, radioligand binding — inhibition: 4.06%.
The inhibition was 29.3% (Sigma non-opioid intracellular receptor 1 (SIGMAR1, Homo sapiens, UniProt Q99720); binding, radioligand binding).
D(4) dopamine receptor (DRD4, Homo sapiens, UniProt P21917); binding, radioligand binding — inhibition: 21.9%.
Alpha-1A adrenergic receptor (ADRA1A, Homo sapiens, UniProt P35348); binding, radioligand binding — inhibition: -13.2%.
It gave -5.06% for inhibition (D(2) dopamine receptor (DRD2, Homo sapiens, UniProt P14416); binding, radioligand binding).
It gave 24.4% for inhibition (Beta-2 adrenergic receptor (ADRB2, Homo sapiens, UniProt P07550); binding, radioligand binding).

Set 4 — concentration: 1 µM
SMILES: Cc1ccc(NC(=O)c2ccnc(C(F)(F)F)c2)cc1-c1cc(OCCO)nc(N2CCOCC2)c1
For Tyrosine-protein kinase Fes/Fps (FES, Homo sapiens, UniProt P07332); competitive binding panel; relative to: vehicle: remaining binding read 89%.
For Receptor-type tyrosine-protein kinase FLT3 (FLT3, Homo sapiens, UniProt P36888); competitive binding panel; relative to: vehicle: remaining binding read 97%.
The remaining binding was 100% (Ribosomal protein S6 kinase alpha-4 (RPS6KA4, Homo sapiens, UniProt O75676); competitive binding scan; C-terminal kinase domain 2).
For Microtubule-associated serine/threonine-protein kinase 1 (MAST1, Homo sapiens, UniProt Q9Y2H9); competitive binding panel; relative to: vehicle: remaining binding read 79%.
It gave 100% for remaining binding (Casein kinase I isoform epsilon (CSNK1E, Homo sapiens, UniProt P49674); competitive binding panel; relative to: vehicle).
Tyrosine-protein kinase receptor UFO (AXL, Homo sapiens, UniProt P30530); competitive binding panel; relative to: vehicle — remaining binding: 90%.
Vascular endothelial growth factor receptor 3 (FLT4, Homo sapiens, UniProt P35916); competitive binding panel; relative to: vehicle — remaining binding: 79%.
The remaining binding was 95% (Ephrin type-B receptor 6 (EPHB6, Homo sapiens, UniProt O15197); competitive binding panel; relative to: vehicle).
It gave 100% for remaining binding (Myosin-IIIb (MYO3B, Homo sapiens, UniProt Q8WXR4); competitive binding panel; relative to: vehicle).
The remaining binding was 93% (Ribosomal protein S6 kinase alpha-5 (RPS6KA5, Homo sapiens, UniProt O75582); competitive binding scan; N-terminal kinase domain 1).
For Serine/threonine-protein kinase 36 (STK36, Homo sapiens, UniProt Q9NRP7); competitive binding panel; relative to: vehicle: remaining binding read 90%.
Dual specificity mitogen-activated protein kinase kinase 7 (MAP2K7, Homo sapiens, UniProt O14733); competitive binding panel, refers to: MKK7; relative to: vehicle — remaining binding: 100%.
The remaining binding was 98% (Homeodomain-interacting protein kinase 3 (HIPK3, Homo sapiens, UniProt Q9H422); competitive binding panel; relative to: vehicle).
The remaining binding was 98% (Cyclin-dependent kinase 19 (CDK19, Homo sapiens, UniProt Q9BWU1); competitive binding panel, refers to: CDK11; relative to: vehicle).

A few entries again (set 1):
With `C[C@]12CCC(=O)C=C1CC[C@@H]1[C@@H]2[C@@H](O)C[C@@]2(C)[C@H]1CC[C@]2(O)C(=O)COC(=O)CCC1CCCC1` the inhibition was 8%.
`CC[C@H]1OC(=O)[C@H](C)[C@@H](O[C@H]2C[C@@](C)(OC)[C@@H](O)[C@H](C)O2)[C@H](C)[C@@H](O[C@@H]2O[C@H](C)C[C@H](N(C)C)[C@H]2O)[C@](C)(O)C[C@@H](C)C(=O)[C@H](C)[C@@H](O)[C@]1(C)O` gave an inhibition of 12%.
`O[C@@H]1CCCC[C@H]1O` (relative stereo) has an inhibition of -12%.
`COc1cc(/C=C/C(=O)O[C@@H]2[C@H](O)[C@@H](O[C@@H]3O[C@@H](C)[C@H](O[C@@H]4OC[C@@H](O)[C@H](O[C@@H]5OC[C@H](O)[C@H](O)[C@H]5O)[C@H]4O)[C@@H](O[C@@H]4OC[C@](O)(CO)[C@H]4O)[C@H]3O)[C@H](OC(=O)[C@]34CCC(C)(C)C[C@H]3C3=CC[C@@H]5[C@@]6(C)C[C@H](O)[C@H](O[C@@H]7O[C@H](CO)[C@@H](O)[C@H](O)[C@H]7O)[C@@](C)(C(=O)O)[C@@H]6CC[C@@]5(C)[C@]3(CO)CC4)O[C@@H]2C)cc(OC)c1OC` has an inhibition of -26%.
The inhibition of `COc1ccc(C2CC(=O)c3c(O)cc(O)cc3O2)cc1O` (racemic) is reported as -22%.
`CCCCCCCC(=O)O` has an inhibition of -35%.
The inhibition of `O=C(O)C[C@@H]1C(=O)O[C@H]2[C@H](OC(=O)c3cc(O)c(O)c(O)c3)[C@@H](OC(=O)c3cc(O)c(O)c4c3[C@H]1[C@@H](O)C(=O)O4)[C@H](OC(=O)c1cc(O)c(O)c(O)c1)O[C@@H]2COC(=O)c1cc(O)c(O)c(O)c1` is reported as -102%.
